Assay results of several laboratories.
Lines come from different studies, so protocols differ. pIC50: −log10 of the molar value.

Compound | tested on | test | system | setting | how to read | measurement | result
COc1ccccc1-c1ccncc1C(=O)Nc1nnc(OCc2ccc(Cl)cc2)s1 | PEO1 BRCA2-mutant ovarian cancer | – | – | 1.00 µM, added: olaparib 2 µM | – | colony survival | 0%
C=CC(=O)N1[C@@H](c2ccc3c(c2)OCO3)c2[nH]c3ccccc3c2C[C@H]1C(=O)N1CCN(C)CC1 | human cyclin E1 N112C-3xFLAG:CDK2 | co-IP with TMT proteomics, item: HNRNPA2B1 | – | concentration not given, P22626 | reference: wild type DMSO | relative co-enrichment | 150%
CCN(CC)CC(=O)Nc1cccc(-n2cc(-c3ccc4ccc(-c5cn(-c6cccc(NC(=O)CN(CC)CC)c6)nn5)cc4c3)nn2)c1 | RCC4 | PCR angiogenesis array, item: TIMP1 | – | 5 x IC50, 2 h, normoxia | reference: untreated | fold regulation | 1.03 fold
CNS(=O)(=O)Nc1nccc(Cc2c(C)c3ccc(Oc4ncccc4F)cc3oc2=O)c1F | NU-DUL-1 | cell viability | – | 7 days | – | pIC50 | 8.99
Nc1ncc(-c2cc(-c3cnn(CC(F)(F)F)c3)ncc2F)nc1C(=O)NC1CNCC(F)C1 (stereo not drawn) | NEK1 | KINOMEscan | – | 1 µM | reference: DMSO control | remaining binding | 82%
C=CC(=O)Nc1cccc(Cn2ncc3cnc(Nc4cnn(CCOC)c4)nc32)c1 | FER human | binding, KINOMEscan | – | 100 nM | lower = stronger binding | percent of control | 100%
COC1CN([C@H]2CC[C@H]([C@@]3(C)Oc4c(Cl)cc(C(=O)NCc5c(SC)cc(C)[nH]c5=O)c(C)c4O3)CC2)C1 | – | RNA-seq, item: CLCN1 mouse homolog | mouse, HT-1376 xenograft, whole blood | dose not given | reference: vehicle | log2 fold change | 0.517
c1ccc(-c2n[nH]cc2-c2ccnc3ccccc23)nc1 | KIN3 (Candida albicans) | kinase binding, MIB/MS competition | Candida albicans lysate | 1 µM | reference: DMSO | log2 fold change | -0.01
Cc1ncsc1-c1ccc(C(C)NC(=O)C2CC(O)CN2C(=O)C(NC(=O)CCCCCCCCCCN2CCCC(Nc3ncc(Cl)c(Nc4ccccc4S(=O)(=O)C(C)C)n3)C2)C(C)(C)C)cc1 (stereo not drawn) | 22Rv1 | RNA-seq, item: SH3TC1 mRNA | – | concentration not given | reference: DMSO | log2 fold change | -1.44
